{"data": "Experimental data collected from several papers", "note": "Parts stem from different laboratories: compare values within a part only. Changes are numbered by the printed parent chain."}
{"data": "Block 1", "target": "RING finger protein unkempt homolog, zinc fingers 1-6, GST-SBP tag (UNK, Homo sapiens, UniProt Q9C0B0, residues 30-357)", "method": "RNA Bind-n-Seq", "form": "RNA", "matrix": "in vitro", "tested at": "not given", "setting": "RNA with constant flanks, human and mouse sites, ends assumed", "baseline": "input RNA pool", "direction": "higher = stronger binding", "Residues (chain)": "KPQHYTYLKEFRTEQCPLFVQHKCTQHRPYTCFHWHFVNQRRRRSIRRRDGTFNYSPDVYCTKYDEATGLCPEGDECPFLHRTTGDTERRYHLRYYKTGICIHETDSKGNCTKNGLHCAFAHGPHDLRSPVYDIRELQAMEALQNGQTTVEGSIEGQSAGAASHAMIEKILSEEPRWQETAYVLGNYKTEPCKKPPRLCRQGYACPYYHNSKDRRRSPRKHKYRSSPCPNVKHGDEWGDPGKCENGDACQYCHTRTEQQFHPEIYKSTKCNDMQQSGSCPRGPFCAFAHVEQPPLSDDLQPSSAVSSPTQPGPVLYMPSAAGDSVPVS"}
{"Sequence": "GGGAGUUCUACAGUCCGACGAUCUGCAUGCUGCUGUUUGUGUUUGGCUUUGUUGGCGGGGCGGUGGUCAUUAAUUCUGCGAUCUUAGUAUCUCUCUCUGUUUUGCUGCUUGUGCACUUUUCUAUUUCUACCGGGGUGCCAGCGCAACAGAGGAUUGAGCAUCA", "bound/input enrichment": "0.738 ratio"}
{"Sequence": "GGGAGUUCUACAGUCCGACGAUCGAUAUUCUUCUUCUCAUUGUCCGUCUGGCUGUGUUAAUGGCUGUGACCCUGACAGUACCAGUAGUUAUUUUCCCAAUCCGGAGUUCUGUAACUCACUUGUUGUGUGCAUCAAAAGAUUUCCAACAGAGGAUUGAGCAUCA", "bound/input enrichment": "0.6 ratio"}
{"Sequence": "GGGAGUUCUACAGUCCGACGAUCCAAAAGAUCCUGGCUAACUGUUCUUCUCCCUACCAGGUAGACCUGUUUGGUAUAGCAGAUUUAGCACAUUUACUAUUGUUCAAGGAACACCUACAGGUCUUCUGGGAUGGGUCCUUCUGGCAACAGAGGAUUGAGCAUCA", "bound/input enrichment": "0.838 ratio"}
{"Sequence": "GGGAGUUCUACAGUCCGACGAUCCAUACUCAGGGAGCCCAGCCAGGGCUAGCAGACCAGGCAGCCAAGCUGUCCUACGCCUCGGCUGAGUCGCUGGAGACAAUGUCCGAGGCCGAGCUGCCCCUGGGCUUCAGCAGGAUGAACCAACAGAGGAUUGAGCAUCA", "bound/input enrichment": "0.0659 ratio"}
{"Sequence": "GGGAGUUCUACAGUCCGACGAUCUUGCAUGGAGACAUUCCACAGAAGCAAAGGGAAAUCACCCUGAAAGGUUUUAGAAAUGGUAGUUUUGGAGUUUUGGUGGCAACCAAUGUUGCUGCACGUGGGUUAGACAUCCCUGAGGUUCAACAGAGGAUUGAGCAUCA", "bound/input enrichment": "1.26 ratio"}
{"Sequence": "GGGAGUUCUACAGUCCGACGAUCCGGGUUCCUCGGGGAGAAAUUCUCUGGAGUCAUCUGGAACUUCUCCGAAAAUAUGUAUUGGCAAGUCAAGAACAACAGAUGAAUGAAAUAGUUACAAUUGAUCAACCUGUGCAAAUUAUUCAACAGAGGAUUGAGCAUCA", "bound/input enrichment": "0.376 ratio"}
{"Sequence": "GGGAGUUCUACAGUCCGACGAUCGUAAAUUAUGUAAUGCAAAAUUUUUUUAAUCUUCGCCUUAAUACUUUUUUAUUUUGUUUUAUUUUGAAUGAUGAGCCUUCGUGCCCCCCCUUCCCCCUUUUUUGUCCCCCAACUUGAGAUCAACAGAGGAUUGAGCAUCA", "bound/input enrichment": "0.661 ratio"}
{"Sequence": "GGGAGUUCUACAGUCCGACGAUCGAUGAAAUGGGCCUAGGAAAGACUCUUCAAACAAUUUCUCUUCUUGGGUACAUGAAACAUUAUAGAAACAUUCCUGGGCCUCAUAUGGUUUUGGUUCCUAAGUCUACAUUACACAACUGGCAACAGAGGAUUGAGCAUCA", "bound/input enrichment": "0.341 ratio"}
{"data": "Block 2", "target": "CCNE2, cyclin fold, Cln2 fusion (human)", "method": "yeast growth competition, sequencing", "matrix": "yeast", "setting": "strong parent motif", "baseline": "not given", "direction": "higher = stronger binding", "parent": "E2F1 docking peptide (human); PPVKRRLDLETDH; partner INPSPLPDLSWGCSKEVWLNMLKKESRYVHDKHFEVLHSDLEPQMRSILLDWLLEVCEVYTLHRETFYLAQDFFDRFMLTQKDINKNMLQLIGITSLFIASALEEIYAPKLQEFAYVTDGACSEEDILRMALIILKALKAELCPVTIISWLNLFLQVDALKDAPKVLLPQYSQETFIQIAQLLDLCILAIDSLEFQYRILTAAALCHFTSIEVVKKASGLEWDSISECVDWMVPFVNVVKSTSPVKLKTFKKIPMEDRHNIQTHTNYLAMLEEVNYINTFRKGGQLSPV"}
{"Substitution": "V3C", "normalised enrichment score": 2}
{"Substitution": "L7M", "normalised enrichment score": 0.226}
{"Substitution": "H13N", "normalised enrichment score": 0.939}
{"Substitution": "D12K", "normalised enrichment score": 2.12}
{"Substitution": "E10A", "normalised enrichment score": 2.18}
{"Substitution": "R5W", "normalised enrichment score": 0.104}
{"Substitution": "P2Y", "normalised enrichment score": 0.24}
{"Substitution": "D8I", "normalised enrichment score": 1.92}
{"Substitution": "P2Q", "normalised enrichment score": 0.746}
{"Substitution": "E10R", "normalised enrichment score": 1.37}
{"Substitution": "D8C", "normalised enrichment score": 1.56}
{"Substitution": "H13A", "normalised enrichment score": 0.894}
{"Substitution": "P2S", "normalised enrichment score": 1.48}
{"Substitution": "P2I", "normalised enrichment score": 0.5}
{"data": "Block 3", "target": "Fragile X messenger ribonucleoprotein 1, C-terminal low-complexity region (Fmr1, Mus musculus, UniProt P35922)", "method": "RNA Bind-n-Seq", "form": "RNA", "matrix": "in vitro", "tested at": "200 nM", "setting": "whole 134-nt RNA, ends assumed", "with": "150 mM KCl", "baseline": "input library", "direction": "higher = stronger binding"}
{"Sequence": "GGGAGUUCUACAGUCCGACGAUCACCAUGCAGGUGGGCAUCUUUGGGAAGUGGGGCAAGCGGGGGAUAGGGAGGGGGGUAACACUUUGGGAACAGGUGGUCCCAGGUCGUUUCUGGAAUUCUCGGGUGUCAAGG", "log2 enrichment": 0.873}
{"Sequence": "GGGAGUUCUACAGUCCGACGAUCCAAGUCCUGUGCUACACAUCGUAUGUACCGAAUCGGAAAAGGAAAAGGAAAAGGGAAAGUAUUAUGUUACGCCGUUCGGAUCUGCACUUCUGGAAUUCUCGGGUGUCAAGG", "log2 enrichment": -0.694}
{"Sequence": "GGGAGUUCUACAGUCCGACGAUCGUGAAUCAAAAACUCUGGUUUUAAGCAACCUCUCCUACAGUGCAACAGAAGAAACUCUUCAGGAAGUAUUUGAGAAAGCAACUUUUAUCAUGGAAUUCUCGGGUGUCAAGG", "log2 enrichment": 1.18}
{"Sequence": "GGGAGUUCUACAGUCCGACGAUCACGCUCCAUGAAAGCUAGGAGGGAGUGAAAUAUCAGUGAUCAUCGCAAGGAAGGAGGCAGACAAGAGUAAGGCACACCUGACUCUUAGGAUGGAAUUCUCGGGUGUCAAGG", "log2 enrichment": -0.481}
{"Sequence": "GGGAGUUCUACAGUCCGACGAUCCUGUGCUACACAUCGUAUGUACCGAAUCGGGCCCCCCCGGGGCCCCCCCGGGGCCCCCCCGGAAAGUAUUAUGUUACGCCGUUCGGAUCUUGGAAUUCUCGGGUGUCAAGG", "log2 enrichment": -1.58}
{"Sequence": "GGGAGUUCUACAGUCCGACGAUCCCUCAAGUCCUGUGCUACACAUCGUAUGUACCGAAUCGGGGUGGGUGGGUGGGAAAGUAUUAUGUUACGCCGUUCGGAUCUGCACUUCCAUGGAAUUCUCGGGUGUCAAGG", "log2 enrichment": -0.774}
{"Sequence": "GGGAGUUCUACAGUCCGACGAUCUGGGAGGUGGUUUUUGUUUAUUUUUUUAGCUCAUUUCCAGGGGUGGGAAUUUUUUUUUAAUAUGUGUCAUGAAUAAAGUUGUUUUUGAAAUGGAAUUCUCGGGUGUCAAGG", "log2 enrichment": 0.512}
{"Sequence": "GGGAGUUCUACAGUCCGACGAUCCUCAAGUCCUGUGCUACACAUCGUAUGUACCGAAUCGGAAGGGGAAGGGAAGGAAAGUAUUAUGUUACGCCGUUCGGAUCUGCACUUCCAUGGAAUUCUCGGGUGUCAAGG", "log2 enrichment": 0.0633}
{"Sequence": "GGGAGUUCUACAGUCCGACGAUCUAACUUUAGAGGAGGAUCUGAUGGAUAUGGCAGUGGACGUGGAUUUGGGGAUGGCUAUAAUGGGUAUGGAGGAGGACCUGGAGGUGACAAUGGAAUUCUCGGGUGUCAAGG", "log2 enrichment": 0.137}
{"data": "Mixed results"}
{"Molecule": "PhoQ, residues 284 288 289 292 302 303 GNNTDL", "target": "PhoP, residues 12 14 15 18 19 NMSFL (Escherichia coli, UniProt P23836)", "test": "Sort-seq, measured: YFP reporter", "system": "E. coli", "setting": "PhoQ-PhoP variant library, with: 10 µM Mg2+", "how to read": "baseline: high Mg2+ state, higher = stronger signaling", "measurement": "fold induction", "result": 3.27}
{"note": "Repeated from above (block 3):"}
{"Sequence": "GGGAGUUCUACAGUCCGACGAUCUGGGAGGUGGUUUUUGUUUAUUUUUUUAGCUCAUUUCCAGGGGUGGGAAUUUUUUUUUAAUAUGUGUCAUGAAUAAAGUUGUUUUUGAAAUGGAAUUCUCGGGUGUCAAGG", "log2 enrichment": 0.512}
{"Sequence": "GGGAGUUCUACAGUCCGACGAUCCUCAAGUCCUGUGCUACACAUCGUAUGUACCGAAUCGGAAGGGGAAGGGAAGGAAAGUAUUAUGUUACGCCGUUCGGAUCUGCACUUCCAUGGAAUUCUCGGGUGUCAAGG", "log2 enrichment": 0.0633}
{"Sequence": "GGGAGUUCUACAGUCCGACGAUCUAACUUUAGAGGAGGAUCUGAUGGAUAUGGCAGUGGACGUGGAUUUGGGGAUGGCUAUAAUGGGUAUGGAGGAGGACCUGGAGGUGACAAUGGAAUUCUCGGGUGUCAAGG", "log2 enrichment": 0.137}
